Results collected from several papers.
A part holds a random share of what one study measured.

Sample 1
Target: RING finger protein unkempt homolog, zinc fingers 1-6, GST-SBP tag (UNK, Homo sapiens, UniProt Q9C0B0, residues 30-357)
Chain of UniProt Q9C0B0 (30-357, looked up): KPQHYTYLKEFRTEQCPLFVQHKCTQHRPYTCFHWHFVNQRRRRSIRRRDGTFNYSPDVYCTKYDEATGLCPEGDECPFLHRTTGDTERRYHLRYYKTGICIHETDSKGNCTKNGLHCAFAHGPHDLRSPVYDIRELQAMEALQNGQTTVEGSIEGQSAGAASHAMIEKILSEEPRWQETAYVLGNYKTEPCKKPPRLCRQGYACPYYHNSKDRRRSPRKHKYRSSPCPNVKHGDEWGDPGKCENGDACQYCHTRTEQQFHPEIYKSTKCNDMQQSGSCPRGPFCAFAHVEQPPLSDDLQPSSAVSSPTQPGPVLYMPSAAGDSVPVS
Technique: RNA Bind-n-Seq
Molecule type: RNA
Matrix: in vitro
Tested at: not given
Notes: RNA with constant flanks, ends assumed
Baseline: input RNA pool
Reading: higher = stronger binding
Quantity: bound/input enrichment
GGGAGUUCUACAGUCCGACGAUCUUGGAUUUCAUUUCCCCAGGUCUUCAGUGUUGAUGUAAAUGUGUUUCUGUAGUGUUGCUUAUCCGCACUUUGCGCAUUGUGUAAGUUGGGUAGCAAAAAUGGCAAAAGAGAUGCAAAAUUCAACAGAGGAUUGAGCAUCA: 0.153 ratio
GGGAGUUCUACAGUCCGACGAUCGUAGCAUCAACAUCUAUGAACAGAGAGUCUUCUAGAUCCCAUGCAGUCUUUACCAUCACAACCGAAUCAAUGGAGAAGAGCAGCGAGACCGUGAACAUCCGGACCUCCUUACUCAACCUGCAACAGAGGAUUGAGCAUCA: 0.111 ratio
GGGAGUUCUACAGUCCGACGAUCGGAUACCUUCAGUCGAAGUUUUUUUAGCCCUCACUGAGCUACUUCCAAGUUUGGAAGUACUCCGUGACCUUGGUGAGUUUCUGUCCCCAAUCCCUUAACCCCUCAUCAAUGCUGCUAGUUCAACAGAGGAUUGAGCAUCA: 0.36 ratio
GGGAGUUCUACAGUCCGACGAUCACCUUGAAGGAUAGGUUUUCUUUCUGAUGGGCCAAAGUACUGGAAGCAAAGUACUUUCUGCCGCCGCCCAUGCUUACUUGUGACACUUUUAAUAUGAAAUGUAUCCCCAGACCAAAUGUCCAACAGAGGAUUGAGCAUCA: 0.138 ratio

Sample 2
Target: Interferon regulatory factor 5, full length, phosphomimetic (IRF5, Homo sapiens, UniProt Q13568-2, residues 1-514, K96S/S451D/S453D/S456D/S462D)
Technique: protein-binding microarray
Molecule type: double-stranded DNA, one strand shown
Matrix: in vitro
Tested at: 250 nM
Notes: 60-bp whole probe
With: salmon DNA 0.4 mg/ml
Baseline: random background probes
Reading: higher = stronger binding
Quantity: log fluorescence
GCCTAGCACTTGGAACTGGGGTATCGATTAGTGCTAGTCTTGATTCGCTTGACGCTGCTG: 2.41 z-score
GCCTAGCACGACGATATCAGTATCGCGACGTGCTAGGTCTTGATTCGCTTGACGCTGCTG: 1.41 z-score
GCCTAGCACGAAGGTCTCCTACTGCTGACGTGCTAGGTCTTGATTCGCTTGACGCTGCTG: -0.273 z-score
GCCTAGCACTCAGCTTTTTTTCCGAGACTGTGCTAGGTCTTGATTCGCTTGACGCTGCTG: 0.396 z-score

Sample 3
Target: Histone acetyltransferase KAT6A, winged helix 2, GST fusion (KAT6A, Homo sapiens, UniProt Q92794, residues 85-181)
Technique: protein binding microarray
Molecule type: double-stranded DNA, one strand shown
Matrix: in vitro
Tested at: not given
Notes: 8-mer, flanks averaged, mean of 2 arrays, mostly near background
Baseline: not given
Reading: higher = stronger binding
Quantity: E-score
Target sequence (chain): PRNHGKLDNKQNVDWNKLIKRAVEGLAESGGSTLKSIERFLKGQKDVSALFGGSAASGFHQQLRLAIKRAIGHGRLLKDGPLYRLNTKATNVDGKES
ATACGTCC: -0.113
AGCCCGGG: 0.13
AAAGGGCG: 0.115
ACAACGGG: -0.0582
GCCGGCGC: 0.271
TAGCAATA: 0.049

Further values, each from its own experiment
PhoQ, residues 284 288 289 292 302 303 SMYGEC  fold induction (PhoP, residues 12 14 15 18 19 GQALL (Escherichia coli, UniProt P23836); Sort-seq, item: YFP reporter; E. coli; PhoQ-PhoP variant library, with: 10 µM Mg2+; baseline: high Mg2+ state, higher = stronger signaling): 1.31

Excerpt of the above (sample 3):
TAGCAATA: 0.049
